Assay results of several laboratories.
A part holds a random share of what one study measured. Changes are numbered by the printed parent chain.

Sample 1 — effect on: binding; method: phage display NGS; form: peptide; tested at: concentration not given; relative to: input library
Target: UDP-N-acetylglucosamine--peptide N-acetylglucosaminyltransferase 110 kDa subunit (OGT, Homo sapiens, UniProt O15294)
UniProt O15294, sequence (whole entry, looked up): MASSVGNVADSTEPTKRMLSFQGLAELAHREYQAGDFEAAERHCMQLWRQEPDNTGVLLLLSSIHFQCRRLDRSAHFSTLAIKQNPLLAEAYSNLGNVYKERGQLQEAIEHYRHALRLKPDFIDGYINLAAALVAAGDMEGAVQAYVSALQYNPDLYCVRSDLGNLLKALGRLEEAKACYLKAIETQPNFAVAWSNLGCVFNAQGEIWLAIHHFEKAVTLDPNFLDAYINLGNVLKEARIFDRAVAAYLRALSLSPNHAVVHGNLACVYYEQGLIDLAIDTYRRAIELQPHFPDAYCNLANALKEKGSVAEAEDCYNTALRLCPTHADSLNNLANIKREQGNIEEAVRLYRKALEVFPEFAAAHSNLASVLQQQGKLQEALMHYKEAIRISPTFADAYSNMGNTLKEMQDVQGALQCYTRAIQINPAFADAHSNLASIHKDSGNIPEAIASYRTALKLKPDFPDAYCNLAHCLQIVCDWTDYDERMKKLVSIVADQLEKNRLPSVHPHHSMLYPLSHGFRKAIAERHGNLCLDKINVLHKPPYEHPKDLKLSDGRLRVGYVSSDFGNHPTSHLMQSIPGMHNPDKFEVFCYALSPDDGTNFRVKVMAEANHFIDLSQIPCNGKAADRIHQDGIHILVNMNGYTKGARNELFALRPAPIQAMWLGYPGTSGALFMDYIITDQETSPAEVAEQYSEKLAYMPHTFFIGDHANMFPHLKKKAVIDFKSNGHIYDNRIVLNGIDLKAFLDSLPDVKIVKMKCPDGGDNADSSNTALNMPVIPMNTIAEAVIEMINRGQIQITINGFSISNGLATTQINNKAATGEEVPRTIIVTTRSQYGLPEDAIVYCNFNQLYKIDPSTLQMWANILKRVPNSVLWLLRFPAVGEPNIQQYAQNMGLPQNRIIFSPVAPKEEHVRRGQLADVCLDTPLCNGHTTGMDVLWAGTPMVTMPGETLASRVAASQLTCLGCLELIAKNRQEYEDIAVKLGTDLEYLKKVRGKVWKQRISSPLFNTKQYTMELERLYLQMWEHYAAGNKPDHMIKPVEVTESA
For `QFLHNHSDEKSHPHY`, “enrichment fold change” read 4.93.
`HIVHYNKYFASGTHT`: “enrichment fold change” 2.38.
Under “enrichment fold change”, `NPPHSVHHTQIHRHN` is recorded as 6.99.
`HEPKHAEMESYYNIH` — result for “enrichment fold change”: 2.6.
`VFTPSYQIYIKPRQF`: “enrichment fold change” 6.56.
`QPQHHMWQHHAYDIK` — result for “enrichment fold change”: 6.49.
For `TSFAPEYIIDYIRPV`, “enrichment fold change” read 15.9.
`QPYSNYHHHAHIRYD` — result for “enrichment fold change”: 4.56.

Sample 2 — target: CCNA1, cyclin fold, Cln2 fusion (human); method: yeast growth competition, sequencing; medium: yeast; setting: strong parent motif; relative to: not given; reading: higher = stronger binding
Starting sequence: viral docking peptide; YKVKRRLVFGADD; partner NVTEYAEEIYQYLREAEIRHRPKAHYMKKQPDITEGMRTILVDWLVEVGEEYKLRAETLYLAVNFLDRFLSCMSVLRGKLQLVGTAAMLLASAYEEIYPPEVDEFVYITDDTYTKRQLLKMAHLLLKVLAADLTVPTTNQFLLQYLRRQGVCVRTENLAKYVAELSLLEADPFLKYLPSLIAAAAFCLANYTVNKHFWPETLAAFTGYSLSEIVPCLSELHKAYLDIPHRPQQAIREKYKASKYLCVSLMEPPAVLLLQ
For `R6P`, “normalised enrichment score” read 0.079.
Under “normalised enrichment score”, `V3S` is recorded as 0.89.
For `K4A`, “normalised enrichment score” read -0.242.
Under “normalised enrichment score”, `V3Q` is recorded as 0.348.
For `K4R`, “normalised enrichment score” read 1.26.
Under “normalised enrichment score”, `G10L` is recorded as 1.11.
Under “normalised enrichment score”, `L7R` is recorded as 0.415.
Under “normalised enrichment score”, `R6W` is recorded as -0.41.

Sample 3 — target: vanadate, free oxyanion; method: microfluidic competitive inhibition; medium: in vitro, cell-free expressed; tested at: not given; reading: lower = stronger binding
Setting: derived from inhibition constants, unchanged parent 676 nM
Starting sequence: PafA, mature enzyme, eGFP fusion (Elizabethkingia meningoseptica, UniProt Q9KJX5); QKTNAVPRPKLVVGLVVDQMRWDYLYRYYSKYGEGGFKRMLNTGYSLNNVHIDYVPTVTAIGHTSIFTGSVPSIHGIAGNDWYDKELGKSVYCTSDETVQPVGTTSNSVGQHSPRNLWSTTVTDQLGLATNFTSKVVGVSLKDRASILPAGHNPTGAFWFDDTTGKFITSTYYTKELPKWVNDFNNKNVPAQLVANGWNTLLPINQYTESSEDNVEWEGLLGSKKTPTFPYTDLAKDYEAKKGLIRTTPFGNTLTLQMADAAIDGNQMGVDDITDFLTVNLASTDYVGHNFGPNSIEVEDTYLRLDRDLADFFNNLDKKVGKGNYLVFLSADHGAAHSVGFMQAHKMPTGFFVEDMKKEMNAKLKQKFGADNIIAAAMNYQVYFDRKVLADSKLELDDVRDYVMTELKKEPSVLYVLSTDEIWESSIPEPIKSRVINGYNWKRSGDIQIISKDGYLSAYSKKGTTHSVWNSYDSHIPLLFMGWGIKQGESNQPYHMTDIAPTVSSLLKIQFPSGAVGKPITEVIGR
`T43V` — result for “oxyanion analog dissociation constant”: 652 nM.
`Q448G`: “oxyanion analog dissociation constant” 811 nM.
For `L506V`, “oxyanion analog dissociation constant” read 690 nM.
`Q100G`: “oxyanion analog dissociation constant” 1.17 µM.
Under “oxyanion analog dissociation constant”, `G79A` is recorded as 634 nM.
`F511V` — result for “oxyanion analog dissociation constant”: 882 nM.
For `L389V`, “oxyanion analog dissociation constant” read 701 nM.
`Q492G`: “oxyanion analog dissociation constant” 593 nM.

Other studies, line by line
The viability of `CCOC(=O)[C@H](CCc1ccccc1)N[C@H]1CCc2ccccc2N(CC(=O)O)C1=O` is reported as 104% (HEK-293T/ACE2; concentration not given, 16 (unit not given); relative to: vehicle).

Some of these lines once more (sample 2):
Under “normalised enrichment score”, `L7R` is recorded as 0.415.
For `R6P`, “normalised enrichment score” read 0.079.
Under “normalised enrichment score”, `G10L` is recorded as 1.11.
